Published values pooled from the literature.
Each numbered part is a random draw from the data of one study; scales do not carry over between parts.
Sequence of UniProt P37173 (whole entry, looked up): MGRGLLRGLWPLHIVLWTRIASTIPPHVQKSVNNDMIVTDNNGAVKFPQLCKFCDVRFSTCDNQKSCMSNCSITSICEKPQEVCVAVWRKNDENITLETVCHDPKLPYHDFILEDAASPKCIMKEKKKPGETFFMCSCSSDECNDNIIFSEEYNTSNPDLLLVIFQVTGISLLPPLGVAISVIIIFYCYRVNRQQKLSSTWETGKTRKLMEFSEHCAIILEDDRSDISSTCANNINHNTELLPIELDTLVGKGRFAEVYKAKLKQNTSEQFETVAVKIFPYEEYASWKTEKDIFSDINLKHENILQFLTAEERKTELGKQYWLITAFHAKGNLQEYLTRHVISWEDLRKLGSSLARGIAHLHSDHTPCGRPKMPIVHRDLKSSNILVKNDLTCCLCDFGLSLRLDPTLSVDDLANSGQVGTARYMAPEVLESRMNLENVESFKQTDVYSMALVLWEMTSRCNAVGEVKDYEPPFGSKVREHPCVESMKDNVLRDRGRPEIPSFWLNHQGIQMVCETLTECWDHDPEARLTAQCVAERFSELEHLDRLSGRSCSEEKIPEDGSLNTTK
Sequence of UniProt Q15831 (whole entry, looked up): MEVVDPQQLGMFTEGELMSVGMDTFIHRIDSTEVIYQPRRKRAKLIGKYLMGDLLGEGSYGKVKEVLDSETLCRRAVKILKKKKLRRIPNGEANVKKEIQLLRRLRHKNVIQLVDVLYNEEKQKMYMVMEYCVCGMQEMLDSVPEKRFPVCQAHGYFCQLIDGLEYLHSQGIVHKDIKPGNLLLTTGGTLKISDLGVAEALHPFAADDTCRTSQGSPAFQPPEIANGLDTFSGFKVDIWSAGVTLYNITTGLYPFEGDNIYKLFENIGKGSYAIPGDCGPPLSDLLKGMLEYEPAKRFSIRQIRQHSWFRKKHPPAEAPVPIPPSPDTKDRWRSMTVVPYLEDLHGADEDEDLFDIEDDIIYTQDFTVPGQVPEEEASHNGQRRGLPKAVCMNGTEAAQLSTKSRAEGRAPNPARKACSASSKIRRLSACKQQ
Sequence of UniProt Q9Y2K2 (whole entry, looked up): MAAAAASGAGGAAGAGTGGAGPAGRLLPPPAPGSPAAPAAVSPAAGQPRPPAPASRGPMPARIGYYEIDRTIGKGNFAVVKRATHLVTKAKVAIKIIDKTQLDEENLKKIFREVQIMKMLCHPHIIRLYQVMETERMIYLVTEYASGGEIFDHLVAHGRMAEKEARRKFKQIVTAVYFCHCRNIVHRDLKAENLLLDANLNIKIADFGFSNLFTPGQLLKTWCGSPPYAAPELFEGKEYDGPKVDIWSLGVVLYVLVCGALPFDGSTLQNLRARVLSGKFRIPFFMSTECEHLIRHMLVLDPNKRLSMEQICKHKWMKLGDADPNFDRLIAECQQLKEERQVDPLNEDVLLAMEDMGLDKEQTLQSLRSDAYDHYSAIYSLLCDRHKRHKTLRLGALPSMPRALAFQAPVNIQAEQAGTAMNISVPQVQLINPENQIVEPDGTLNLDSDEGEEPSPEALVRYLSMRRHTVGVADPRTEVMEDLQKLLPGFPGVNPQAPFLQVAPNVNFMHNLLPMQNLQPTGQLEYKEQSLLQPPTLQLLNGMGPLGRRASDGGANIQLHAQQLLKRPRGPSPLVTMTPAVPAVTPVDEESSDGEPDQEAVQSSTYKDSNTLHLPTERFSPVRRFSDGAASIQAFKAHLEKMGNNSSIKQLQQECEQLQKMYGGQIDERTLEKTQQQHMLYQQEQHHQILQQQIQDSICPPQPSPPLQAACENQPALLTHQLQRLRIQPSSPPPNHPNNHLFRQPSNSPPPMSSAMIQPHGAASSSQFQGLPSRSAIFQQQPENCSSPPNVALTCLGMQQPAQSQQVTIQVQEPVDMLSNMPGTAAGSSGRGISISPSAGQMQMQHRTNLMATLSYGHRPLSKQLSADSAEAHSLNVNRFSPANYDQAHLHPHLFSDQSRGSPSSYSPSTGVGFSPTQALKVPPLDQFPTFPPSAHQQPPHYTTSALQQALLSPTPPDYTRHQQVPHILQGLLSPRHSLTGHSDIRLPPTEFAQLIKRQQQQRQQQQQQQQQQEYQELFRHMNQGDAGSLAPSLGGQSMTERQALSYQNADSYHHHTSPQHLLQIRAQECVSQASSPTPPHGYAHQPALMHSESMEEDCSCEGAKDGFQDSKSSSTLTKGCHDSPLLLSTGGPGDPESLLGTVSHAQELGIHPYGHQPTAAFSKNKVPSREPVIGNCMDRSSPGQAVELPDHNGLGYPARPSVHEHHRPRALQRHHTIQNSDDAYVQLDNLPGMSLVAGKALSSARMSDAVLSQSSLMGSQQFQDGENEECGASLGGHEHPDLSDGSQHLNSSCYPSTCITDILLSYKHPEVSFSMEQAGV
Sequence of UniProt P29597 (whole entry, looked up): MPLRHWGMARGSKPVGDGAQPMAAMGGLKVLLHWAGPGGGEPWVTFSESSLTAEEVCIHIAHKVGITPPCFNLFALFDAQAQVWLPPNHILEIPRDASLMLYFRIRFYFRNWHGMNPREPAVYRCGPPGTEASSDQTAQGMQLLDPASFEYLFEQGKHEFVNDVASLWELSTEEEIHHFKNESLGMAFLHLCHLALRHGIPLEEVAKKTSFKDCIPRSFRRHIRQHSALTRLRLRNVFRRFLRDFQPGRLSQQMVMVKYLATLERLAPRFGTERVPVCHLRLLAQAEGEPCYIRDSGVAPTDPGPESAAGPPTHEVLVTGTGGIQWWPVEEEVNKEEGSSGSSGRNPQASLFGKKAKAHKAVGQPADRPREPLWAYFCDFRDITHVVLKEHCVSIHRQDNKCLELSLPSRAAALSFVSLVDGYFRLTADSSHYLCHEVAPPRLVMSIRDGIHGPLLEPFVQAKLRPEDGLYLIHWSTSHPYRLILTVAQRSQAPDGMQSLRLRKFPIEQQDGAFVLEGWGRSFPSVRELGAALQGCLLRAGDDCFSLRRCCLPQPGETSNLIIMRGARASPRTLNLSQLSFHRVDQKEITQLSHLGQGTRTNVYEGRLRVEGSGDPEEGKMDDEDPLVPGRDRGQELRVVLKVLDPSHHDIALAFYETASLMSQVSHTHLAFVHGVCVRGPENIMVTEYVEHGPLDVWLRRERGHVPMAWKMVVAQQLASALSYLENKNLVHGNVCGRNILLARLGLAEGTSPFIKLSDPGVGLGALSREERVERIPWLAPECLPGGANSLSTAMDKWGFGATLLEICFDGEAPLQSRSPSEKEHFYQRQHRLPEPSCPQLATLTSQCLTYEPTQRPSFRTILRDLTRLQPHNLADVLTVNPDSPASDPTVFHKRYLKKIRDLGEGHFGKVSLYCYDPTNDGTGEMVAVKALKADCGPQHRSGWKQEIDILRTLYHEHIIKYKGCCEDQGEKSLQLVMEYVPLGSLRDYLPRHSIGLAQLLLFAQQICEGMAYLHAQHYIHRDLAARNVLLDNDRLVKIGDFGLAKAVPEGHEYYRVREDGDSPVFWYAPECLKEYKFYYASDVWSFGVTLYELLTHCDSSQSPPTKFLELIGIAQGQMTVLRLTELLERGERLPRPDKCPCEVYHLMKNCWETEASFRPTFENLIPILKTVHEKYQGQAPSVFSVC
Sequence of UniProt O14920 (whole entry, looked up): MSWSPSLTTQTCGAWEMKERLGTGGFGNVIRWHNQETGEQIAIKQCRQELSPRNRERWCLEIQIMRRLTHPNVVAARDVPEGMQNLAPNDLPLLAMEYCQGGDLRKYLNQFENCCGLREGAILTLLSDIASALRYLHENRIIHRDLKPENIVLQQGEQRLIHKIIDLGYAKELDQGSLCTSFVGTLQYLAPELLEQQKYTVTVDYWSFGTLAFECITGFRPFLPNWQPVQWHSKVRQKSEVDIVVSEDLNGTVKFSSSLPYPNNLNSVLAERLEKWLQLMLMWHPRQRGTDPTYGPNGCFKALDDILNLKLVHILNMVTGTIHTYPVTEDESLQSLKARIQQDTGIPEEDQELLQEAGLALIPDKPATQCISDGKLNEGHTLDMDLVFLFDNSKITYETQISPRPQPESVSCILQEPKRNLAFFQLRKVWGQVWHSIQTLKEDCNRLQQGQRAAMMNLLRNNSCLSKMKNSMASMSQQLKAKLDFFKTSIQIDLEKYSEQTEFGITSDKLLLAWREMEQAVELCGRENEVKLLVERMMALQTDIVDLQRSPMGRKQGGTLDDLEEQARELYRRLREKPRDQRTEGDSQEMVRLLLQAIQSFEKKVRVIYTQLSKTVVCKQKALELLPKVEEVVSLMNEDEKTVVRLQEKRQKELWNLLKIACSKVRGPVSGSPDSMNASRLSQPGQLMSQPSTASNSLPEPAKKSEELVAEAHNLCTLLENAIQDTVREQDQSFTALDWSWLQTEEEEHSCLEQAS
Sequence of UniProt P07948 (whole entry, looked up): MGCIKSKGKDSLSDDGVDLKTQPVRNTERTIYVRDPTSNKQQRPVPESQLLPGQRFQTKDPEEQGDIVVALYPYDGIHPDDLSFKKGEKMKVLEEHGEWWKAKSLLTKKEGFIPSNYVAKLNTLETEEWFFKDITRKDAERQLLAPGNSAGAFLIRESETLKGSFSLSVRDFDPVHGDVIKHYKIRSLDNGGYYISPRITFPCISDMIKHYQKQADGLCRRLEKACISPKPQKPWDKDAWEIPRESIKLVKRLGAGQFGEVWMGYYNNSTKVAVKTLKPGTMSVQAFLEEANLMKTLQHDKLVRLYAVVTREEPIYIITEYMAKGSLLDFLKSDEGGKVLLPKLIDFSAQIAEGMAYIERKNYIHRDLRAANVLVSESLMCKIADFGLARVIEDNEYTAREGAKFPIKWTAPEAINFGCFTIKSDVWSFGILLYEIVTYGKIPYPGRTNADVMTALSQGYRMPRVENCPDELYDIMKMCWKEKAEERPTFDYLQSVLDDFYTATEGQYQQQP

Sample 1 — observed: enzyme activity; mode: inhibitor; concentration: 0.5 µM; reference: control
SMILES: Nc1nc(Nc2ccc(S(N)(=O)=O)cc2)nn1C(=O)c1c(F)cccc1F
target	remaining activity [%]
IKBKB (Homo sapiens, UniProt O14920)	105
GRK3 (Homo sapiens, UniProt P35626)	87.2
Protein kinase C beta type, isoform beta-I (PRKCB, Homo sapiens, UniProt P05771)	88.2
CAMKK2 (Homo sapiens, UniProt Q96RR4)	61.5
STK39 (Homo sapiens, UniProt Q9UEW8)	89.5
DAPK2 (Homo sapiens, UniProt Q9UIK4)	107
CAMK2D (Homo sapiens, UniProt Q13557)	94.6
PRKCA (Homo sapiens, UniProt P17252)	55.7
Tyrosine-protein kinase Lyn, isoform B (LYN, Homo sapiens, UniProt P07948)	103
STK11 (Homo sapiens, UniProt Q15831)	85.8
TGFBR2 (Homo sapiens, UniProt P37173)	98.5

Sample 2 — technique: aptamer microarray, sandwich; molecule type: DNA with 2'F-ANA; medium: in vitro; concentration: 200 nM; together with: Cy3 exosite-II aptamer, 400 nM; reading: higher = stronger binding; oligonucleotide: GGTTGGTGTGGTTGG
Target: Prothrombin, mature alpha-thrombin (F2, Homo sapiens, UniProt P00734)
Setting: whole 15-mer aptamer, many near background
Modification	mean fluorescence intensity
2'F-ANA at 3 4 7 8 9 11 13	605 a.u.
2'F-ANA at 2 5 6 7 8 9 10 11 13 15	52.2 a.u.
2'F-ANA at 6 8 9 10 13	139 a.u.
2'F-ANA at 2 3 5 7 12	228 a.u.
2'F-ANA at 1 3 4 6 7 10 12 15	79 a.u.
2'F-ANA at 2 4 5 6 7 8 11 14	52.9 a.u.
2'F-ANA at 2 4 5 6 7 9 10 12 15	50.7 a.u.
2'F-ANA at 1 2 5 7 10 11 12 13	47.7 a.u.

Sample 3 — technique: protein-binding microarray; molecule type: double-stranded DNA, one strand shown; medium: in vitro; concentration: 2200 nM top; setting: 60-bp whole probe; together with: salmon DNA 0.4 mg/ml; reference: random background probes; reading: higher = stronger binding; all sequences stand within: GCCTAGCAC … GTCTTGATTCGCTTGACGCTGCTG
Target: Interferon regulatory factor 7, full length, phosphomimetic (IRF7, Homo sapiens, UniProt Q92985, residues 1-503, S471D/S472D/S475D/S476D/S477D/S483D/S484D/S487D)
Construct (chain): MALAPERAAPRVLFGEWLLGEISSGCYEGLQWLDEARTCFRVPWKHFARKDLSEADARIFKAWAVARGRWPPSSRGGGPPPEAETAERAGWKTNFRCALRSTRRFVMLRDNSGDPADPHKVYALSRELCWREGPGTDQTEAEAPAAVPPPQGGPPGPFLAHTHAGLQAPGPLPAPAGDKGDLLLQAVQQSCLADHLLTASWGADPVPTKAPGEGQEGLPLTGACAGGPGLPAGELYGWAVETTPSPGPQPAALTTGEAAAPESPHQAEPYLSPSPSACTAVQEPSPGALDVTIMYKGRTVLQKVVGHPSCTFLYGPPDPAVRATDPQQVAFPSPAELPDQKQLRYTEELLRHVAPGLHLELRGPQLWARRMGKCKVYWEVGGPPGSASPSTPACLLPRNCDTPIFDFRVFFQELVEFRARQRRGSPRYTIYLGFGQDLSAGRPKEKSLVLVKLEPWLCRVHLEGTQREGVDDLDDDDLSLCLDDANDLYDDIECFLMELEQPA
Oligonucleotide	fitted relative affinity [z-score]
TTTGGTCTCCTTCTCCTTTAGTGCTAG	1.99
CTGAATGTCCTCCTCTCTCTGTGCTAG	1.24
GACGTTTTCGGTCTCGGGACGTGCTAG	6.01
CCAAATCTGTGTTATTAAAATGTGCTA	0.367
TCAACTTCGGCCTCTAGGACTGTGCTA	-0.0844
TAAGGACTGGGGACTGGGTTAGTGCTA	-1.13
TTAGGACTGGAACTGGGTTAGTGCTAG	-0.41
TCATGTATTTGTCCCTAACTGTGCTAG	1.9

Sample 4 — technique: competition with immobilised ligand; concentration: 1 µM
Structure (SMILES): COc1cc(-c2cn(C3CCc4ccccc4N(CC(F)(F)F)C3=O)nn2)ccc1-n1ccc(C)n1 (stereo not drawn)
target	assay	remaining binding [%]
ROS1 (Homo sapiens, UniProt P08922)	cell-free assay	100
Cyclin-dependent kinase 4, with cyclin D1 (CDK4, Homo sapiens, UniProt P11802)	cell-free assay	90
PRKD1 (Homo sapiens, UniProt Q15139)	cell-free assay	100
MAP3K13 (Homo sapiens, UniProt O43283)	cell-free assay	84
TGFBR2 (Homo sapiens, UniProt P37173)	cell-free assay	100
NEK1 (Homo sapiens, UniProt Q96PY6)	cell-free assay	100
Non-receptor tyrosine-protein kinase TYK2, JH2 (TYK2, Homo sapiens, UniProt P29597)	cell-free assay	100
COQ8B (Homo sapiens, UniProt Q96D53)	cell-free assay	100
TIE1 (Homo sapiens, UniProt P35590)	cell-free assay	100
PRKAA2 (Homo sapiens, UniProt P54646)	cell-free assay	71
SIK3 (Homo sapiens, UniProt Q9Y2K2)	cell-free assay	92
CLK3 (Homo sapiens, UniProt P49761)	cell-free assay	95
Tyrosine-protein kinase ABL1, phosphorylated (ABL1, Homo sapiens, UniProt P00519, E255K)	binding	96
RET (Homo sapiens, UniProt P07949, V804L)	cell-free assay	100
PHKG2 (Homo sapiens, UniProt P15735)	cell-free assay	100

Excerpt of the above (sample 4):
target	assay	remaining binding [%]
Cyclin-dependent kinase 4, with cyclin D1 (CDK4, Homo sapiens, UniProt P11802)	cell-free assay	90
PRKD1 (Homo sapiens, UniProt Q15139)	cell-free assay	100
MAP3K13 (Homo sapiens, UniProt O43283)	cell-free assay	84
TGFBR2 (Homo sapiens, UniProt P37173)	cell-free assay	100
NEK1 (Homo sapiens, UniProt Q96PY6)	cell-free assay	100
Non-receptor tyrosine-protein kinase TYK2, JH2 (TYK2, Homo sapiens, UniProt P29597)	cell-free assay	100
COQ8B (Homo sapiens, UniProt Q96D53)	cell-free assay	100
